Published values gathered from unrelated publications.
Each numbered part is a random draw from the data of one study; scales do not carry over between parts. Values joined by “and” are separate records of one study, mostly repeats; a detail may differ.
Chain of UniProt P41143 (whole entry, looked up): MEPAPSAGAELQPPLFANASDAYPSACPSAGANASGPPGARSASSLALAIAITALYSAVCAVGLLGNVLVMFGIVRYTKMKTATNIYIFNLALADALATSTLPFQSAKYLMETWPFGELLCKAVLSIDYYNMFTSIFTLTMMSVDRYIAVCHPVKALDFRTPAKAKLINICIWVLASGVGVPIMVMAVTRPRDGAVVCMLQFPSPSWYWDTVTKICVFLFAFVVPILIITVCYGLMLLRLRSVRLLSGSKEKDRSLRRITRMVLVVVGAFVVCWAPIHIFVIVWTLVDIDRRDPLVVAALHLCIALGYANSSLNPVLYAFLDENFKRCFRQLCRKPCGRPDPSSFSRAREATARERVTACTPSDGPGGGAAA
Chain of UniProt P11229 (whole entry, looked up): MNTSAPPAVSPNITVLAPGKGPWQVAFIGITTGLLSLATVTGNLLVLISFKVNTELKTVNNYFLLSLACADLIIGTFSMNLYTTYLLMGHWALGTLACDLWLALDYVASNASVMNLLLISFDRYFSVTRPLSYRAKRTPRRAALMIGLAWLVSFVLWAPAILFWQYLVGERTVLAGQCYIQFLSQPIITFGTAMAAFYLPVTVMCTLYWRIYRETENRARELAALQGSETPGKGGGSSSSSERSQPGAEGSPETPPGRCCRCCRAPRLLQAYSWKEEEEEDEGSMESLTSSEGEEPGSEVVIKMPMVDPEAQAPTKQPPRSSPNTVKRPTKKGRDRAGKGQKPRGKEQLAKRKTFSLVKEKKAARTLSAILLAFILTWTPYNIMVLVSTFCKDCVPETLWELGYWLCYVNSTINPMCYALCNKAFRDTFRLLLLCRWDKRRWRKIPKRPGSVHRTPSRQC
Chain of UniProt P28223 (whole entry, looked up): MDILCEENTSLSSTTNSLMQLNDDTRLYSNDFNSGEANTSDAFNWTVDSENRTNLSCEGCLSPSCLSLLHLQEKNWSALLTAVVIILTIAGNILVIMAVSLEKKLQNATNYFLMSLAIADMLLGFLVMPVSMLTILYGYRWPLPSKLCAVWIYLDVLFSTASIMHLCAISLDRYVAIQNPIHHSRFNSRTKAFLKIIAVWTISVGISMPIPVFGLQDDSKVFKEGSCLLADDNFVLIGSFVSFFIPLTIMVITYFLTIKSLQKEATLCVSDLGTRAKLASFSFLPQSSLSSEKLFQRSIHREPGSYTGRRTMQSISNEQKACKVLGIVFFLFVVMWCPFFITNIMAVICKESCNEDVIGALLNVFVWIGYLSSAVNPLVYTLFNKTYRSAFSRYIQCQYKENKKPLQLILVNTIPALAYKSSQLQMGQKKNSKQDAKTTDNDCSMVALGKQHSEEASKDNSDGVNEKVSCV

Series 1 — effect on: binding; method: radioligand binding; concentration: 10 µM
Structure (SMILES): O=C(O)[C@@H]1[C@@H](Cn2nnc3ccccc3c2=O)CC[C@H]1C(=O)c1ccc(OCCC2CCOCC2)cc1
target | inhibition [%]
CHRM1 (Homo sapiens, UniProt P11229) | 6.4
HTR2A (Homo sapiens, UniProt P28223) | 18.4
OPRD1 (Homo sapiens, UniProt P41143) | 15.9

Series 2 — action: inhibitor; setting: literature data
Target: Synaptic vesicular amine transporter (SLC18A2, Homo sapiens, UniProt Q05940)
Chain of UniProt Q05940 (whole entry, looked up): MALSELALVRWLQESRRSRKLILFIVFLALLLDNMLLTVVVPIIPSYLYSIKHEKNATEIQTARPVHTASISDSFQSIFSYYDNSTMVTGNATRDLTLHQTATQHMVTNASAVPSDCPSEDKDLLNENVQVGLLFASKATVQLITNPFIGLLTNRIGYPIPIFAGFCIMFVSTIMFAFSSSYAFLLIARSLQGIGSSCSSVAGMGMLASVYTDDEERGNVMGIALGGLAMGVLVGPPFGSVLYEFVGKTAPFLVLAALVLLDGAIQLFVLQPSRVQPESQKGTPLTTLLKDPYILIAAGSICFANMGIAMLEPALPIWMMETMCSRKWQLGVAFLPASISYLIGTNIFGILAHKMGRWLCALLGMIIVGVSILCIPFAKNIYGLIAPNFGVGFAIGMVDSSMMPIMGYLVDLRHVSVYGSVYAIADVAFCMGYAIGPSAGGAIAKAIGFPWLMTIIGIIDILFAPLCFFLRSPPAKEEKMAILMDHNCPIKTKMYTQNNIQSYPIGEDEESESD
SMILES | IC50 [µM]
COc1ccc([C@@]23CCC(=O)C[C@@H]2N(C)CC3)cc1OC | > 10
CN(C)C(=O)C(CCN1CCC(O)(c2ccc(Cl)cc2)CC1)(c1ccccc1)c1ccccc1 | 0.158
O=C1Nc2ccc(Cl)cc2C(c2ccccc2Cl)=NC1O (centres unmarked) | > 10

Other studies, line by line
SMILES | tested on | system | setting | how to read | endpoint | result
Cc1cc(C)c(C#N)c(N2C[C@@H]3CCN(C)[C@@H]3C2)n1 | – | mouse, microsomes or S9 | 2 µM, 0.5 h | – | remaining compound | 19.3%
CNC(=O)c1ccc(-c2cnn3ccc(C(=O)N(C)c4ccc(Cl)c(C(=O)OC)c4)cc23)cc1 | Cryptosporidium parvum | neonatal calves | dose not given, day 2 post-treatment | direction not given | fecal consistency score | 1 and 3

For quick reference, copied from above (series 1):
target | inhibition [%]
HTR2A (Homo sapiens, UniProt P28223) | 18.4
